Published values pooled from the literature.
Each line is one published result; not all experiments were run side by side. Values joined by “and” are separate records of one study, mostly repeats; a detail may differ. Numbers after ± are the reported error. Where no end group is shown, it is not given here. No end group written: not given here.
PRDX6: PRDX6 1-224, Alexa 546 label (Homo sapiens, UniProt P30041)
Sequence of UniProt P30041 (whole entry, looked up): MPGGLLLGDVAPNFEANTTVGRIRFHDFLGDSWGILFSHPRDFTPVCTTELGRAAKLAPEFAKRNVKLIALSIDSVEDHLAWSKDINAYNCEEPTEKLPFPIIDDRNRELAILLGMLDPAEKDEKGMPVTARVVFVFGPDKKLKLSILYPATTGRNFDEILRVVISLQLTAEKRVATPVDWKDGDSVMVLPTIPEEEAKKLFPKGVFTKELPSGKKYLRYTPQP
Rbpj: Rbpj 53-474 (Mus musculus, UniProt P31266)
Sequence of UniProt P31266 (whole entry, looked up): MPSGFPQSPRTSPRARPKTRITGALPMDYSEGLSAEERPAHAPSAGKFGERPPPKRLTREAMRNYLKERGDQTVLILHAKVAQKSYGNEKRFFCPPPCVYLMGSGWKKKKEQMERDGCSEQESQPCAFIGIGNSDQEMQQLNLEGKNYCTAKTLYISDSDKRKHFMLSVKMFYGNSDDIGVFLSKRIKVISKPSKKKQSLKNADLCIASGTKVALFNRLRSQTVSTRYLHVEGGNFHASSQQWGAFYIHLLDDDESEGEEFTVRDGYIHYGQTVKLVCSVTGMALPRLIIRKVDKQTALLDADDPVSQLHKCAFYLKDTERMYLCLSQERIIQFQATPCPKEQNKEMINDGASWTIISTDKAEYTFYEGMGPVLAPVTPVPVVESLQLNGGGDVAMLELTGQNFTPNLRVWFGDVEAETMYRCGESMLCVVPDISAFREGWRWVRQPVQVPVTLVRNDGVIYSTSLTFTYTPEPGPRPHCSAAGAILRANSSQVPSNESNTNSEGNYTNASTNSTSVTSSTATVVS
B1: PDE6H (Homo sapiens, UniProt Q13956); sequence looked up; chain MSDNTTLPAPASNQGPTTPRKGPPKFKQRQTRQFKSKPPKKGVKGFGDDIPGMEGLGTDITVICPWEAFSHLELHELAQFGII
B2: CYCS (Homo sapiens, UniProt P99999); sequence looked up; chain MGDVEKGKKIFIMKCSQCHTVEKGGKHKTGPNLHGLFGRKTGQAPGYSYTAANKNKGIIWGEDTLMEYLENPKKYIPGTKMIFVGIKKKEERADLIAYLKKATNE
B3: UGT1A9 (Homo sapiens, UniProt O60656); chain GKLLVVPMDGSHWFTMRSVVEKLILRGHEVVVVMPEVSWQLGRSLNCTVKTYSTSYTLEDLDREFKAFAHAQWKAQVRSIYSLLMGSYNDIFDLFFSNCRSLFKDKKLVEYLKESSFDAVFLDPFDNCGLIVAKYFSLPSVVFARGILCHYLEEGAQCPAPLSYVPRILLGFSDAMTFKERVRNHIMHLEEHLLCHRFFKNALEIASEILQTPVTEYDLYSHTSIWLLRTDFVLDYPKPVMPNMIFIGGINCHQGKPLPMEFEAYINASGEHGIVVFSLGSMVSEIPEKKAMAIADALGKIPQTVLWRYTGTRPSNLANNTILVKWLPQNDLLGHPMTRAFITHAGSHGVYESICNGVPMVMMPLFGDQMDNAKRMETKGAGVTLNVLEMTSEDLENALKAVINDKSYKENIMRLSSLHKDRPVEPLDLAVFWVEFVMRHKGAPHLRPAAHDLTWYQYHSLDVIGFLLAVVLTVAFITFKCCAYGYRKCLGKKGRVKKAHKSKTH
B4: GSTP1 3-210 I105V/A114V (Homo sapiens, UniProt P09211); QSY 35 label; chain PYTVVYFPVRGRCAALRMLLADQGQSWKEEVVTVETWQEGSLKASCLYGQLPKFQDGDLTLYQSNTILRHLGRTLGLYGKDQQEAALVDMVNDGVEDLRCKYVSLIYTNYEVGKDDYVKALPGQLKPFETLLSQNQGGKTFIVGDQISFADYNLLDLLLIHEVLAPGCLDAFPLLSAYVGRLSARPKLKAFLASPEYVNLPINGNGKQ
B5: adrenodoxin (Bos taurus, UniProt P00257); RED dye on amines; sequence looked up; chain SSSEDKITVHFINRDGETLTTKGKIGDSLLDVVVQNNLDIDGFGACEGTLACSTCHLIFEQHIFEKLEAITDEENDMLDLAYGLTDRSRLGCQICLTKAMDNMTVRVPDAVSDARESIDMGMNSSKIE
B6: GLI2 zinc fingers 1-4 (Homo sapiens); chain KEDLDRDDCKQEAEVVIYETNCHWEDCTKEYDTQEQLVHHINNEHIHGEKKEFVCRWQACTREQKPFKAQYMLVVHMRRHTGEKPHKCTFEGCSKAYSRLENLKTHLRSHTGEKPYVCEHEGCNKAFSNASDRAKHQNRTH
B7: GSTP1 3-210 (Homo sapiens, UniProt P09211); QSY 35 label; chain PYTVVYFPVRGRCAALRMLLADQGQSWKEEVVTVETWQEGSLKASCLYGQLPKFQDGDLTLYQSNTILRHLGRTLGLYGKDQQEAALVDMVNDGVEDLRCKYISLIYTNYEAGKDDYVKALPGQLKPFETLLSQNQGGKTFIVGDQISFADYNLLDLLLIHEVLAPGCLDAFPLLSAYVGRLSARPKLKAFLASPEYVNLPINGNGKQ
B8: BMP7 mature (UniProt P18075); sequence looked up; chain STGSKQRSQNRSKTPKNQEALRMANVAENSSSDQRQACKKHELYVSFRDLGWQDWIIAPEGYAAYYCEGECAFPLNSYMNATNHAIVQTLVHFINPETVPKPCCAPTQLNAISVLYFDDSSNVILKKYRNMVVRACGCH
B9: KLRK1/HCST (Homo sapiens); terbium label on SNAP-tag; chain MGWIRGRRSRHSWEMSEFHNYNLDLKKSDFSTRWQKQRCPVVKSKCRENASPFFFCCFIAVAMGIRFIIMVTIWSAVFLNSLFNQEVQIPLTESYCGPCPKNWICYKNNCYQFFDESKNWYESQASCMSQNASLLKVYSKEDQDLLKLVKSYHWMGLVHIPTNGSWQWEDGSILSPNLLTIIEMQKGDCALYASSFKGYIENCSTPNTYICMQRTV
Sequence of UniProt Q2M1P5 (whole entry, looked up): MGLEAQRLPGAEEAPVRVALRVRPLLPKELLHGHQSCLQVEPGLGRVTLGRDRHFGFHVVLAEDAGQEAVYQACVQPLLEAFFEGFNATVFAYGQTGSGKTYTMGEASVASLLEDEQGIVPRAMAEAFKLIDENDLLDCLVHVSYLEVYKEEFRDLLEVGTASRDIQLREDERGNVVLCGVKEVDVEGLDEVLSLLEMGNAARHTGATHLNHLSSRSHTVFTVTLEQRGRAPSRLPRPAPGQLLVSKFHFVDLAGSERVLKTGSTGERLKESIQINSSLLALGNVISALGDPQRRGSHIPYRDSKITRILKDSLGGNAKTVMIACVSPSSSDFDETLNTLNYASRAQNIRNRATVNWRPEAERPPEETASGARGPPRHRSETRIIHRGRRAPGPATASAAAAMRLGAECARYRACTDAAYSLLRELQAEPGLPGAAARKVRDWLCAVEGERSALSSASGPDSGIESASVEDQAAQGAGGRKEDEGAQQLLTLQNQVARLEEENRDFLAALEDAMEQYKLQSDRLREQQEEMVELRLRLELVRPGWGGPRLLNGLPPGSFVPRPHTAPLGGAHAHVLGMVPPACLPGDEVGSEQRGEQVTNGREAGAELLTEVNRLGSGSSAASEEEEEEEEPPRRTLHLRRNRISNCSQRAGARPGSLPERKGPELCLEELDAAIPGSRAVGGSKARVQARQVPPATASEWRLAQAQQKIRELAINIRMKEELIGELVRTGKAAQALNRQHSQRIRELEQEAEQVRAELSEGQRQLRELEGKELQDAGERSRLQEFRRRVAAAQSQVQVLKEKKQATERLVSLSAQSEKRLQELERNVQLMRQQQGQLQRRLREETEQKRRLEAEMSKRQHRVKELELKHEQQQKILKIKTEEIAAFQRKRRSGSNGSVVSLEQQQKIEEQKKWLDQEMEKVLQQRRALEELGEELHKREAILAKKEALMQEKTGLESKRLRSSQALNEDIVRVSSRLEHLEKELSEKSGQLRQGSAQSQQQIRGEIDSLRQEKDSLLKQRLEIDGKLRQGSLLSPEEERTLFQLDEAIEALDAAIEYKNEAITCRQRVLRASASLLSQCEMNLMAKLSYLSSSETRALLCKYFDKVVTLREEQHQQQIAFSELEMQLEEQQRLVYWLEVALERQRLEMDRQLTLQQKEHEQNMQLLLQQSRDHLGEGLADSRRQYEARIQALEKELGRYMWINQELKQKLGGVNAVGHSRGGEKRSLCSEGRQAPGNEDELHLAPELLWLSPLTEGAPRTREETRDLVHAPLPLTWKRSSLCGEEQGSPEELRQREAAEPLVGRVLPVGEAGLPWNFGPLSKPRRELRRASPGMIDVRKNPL
Sequence of UniProt Q29983 (whole entry, looked up): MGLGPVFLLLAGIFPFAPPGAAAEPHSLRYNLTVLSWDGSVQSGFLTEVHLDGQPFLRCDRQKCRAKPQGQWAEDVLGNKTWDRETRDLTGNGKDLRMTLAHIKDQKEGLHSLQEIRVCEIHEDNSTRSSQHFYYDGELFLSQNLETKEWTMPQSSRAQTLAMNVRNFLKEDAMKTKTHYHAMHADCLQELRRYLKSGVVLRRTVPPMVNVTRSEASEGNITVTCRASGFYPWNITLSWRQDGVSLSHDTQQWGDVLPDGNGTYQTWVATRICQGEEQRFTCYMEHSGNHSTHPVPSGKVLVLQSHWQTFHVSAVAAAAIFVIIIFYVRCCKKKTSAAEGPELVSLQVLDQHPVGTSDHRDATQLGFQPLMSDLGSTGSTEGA
Sequence of UniProt Q04049 (whole entry, looked up): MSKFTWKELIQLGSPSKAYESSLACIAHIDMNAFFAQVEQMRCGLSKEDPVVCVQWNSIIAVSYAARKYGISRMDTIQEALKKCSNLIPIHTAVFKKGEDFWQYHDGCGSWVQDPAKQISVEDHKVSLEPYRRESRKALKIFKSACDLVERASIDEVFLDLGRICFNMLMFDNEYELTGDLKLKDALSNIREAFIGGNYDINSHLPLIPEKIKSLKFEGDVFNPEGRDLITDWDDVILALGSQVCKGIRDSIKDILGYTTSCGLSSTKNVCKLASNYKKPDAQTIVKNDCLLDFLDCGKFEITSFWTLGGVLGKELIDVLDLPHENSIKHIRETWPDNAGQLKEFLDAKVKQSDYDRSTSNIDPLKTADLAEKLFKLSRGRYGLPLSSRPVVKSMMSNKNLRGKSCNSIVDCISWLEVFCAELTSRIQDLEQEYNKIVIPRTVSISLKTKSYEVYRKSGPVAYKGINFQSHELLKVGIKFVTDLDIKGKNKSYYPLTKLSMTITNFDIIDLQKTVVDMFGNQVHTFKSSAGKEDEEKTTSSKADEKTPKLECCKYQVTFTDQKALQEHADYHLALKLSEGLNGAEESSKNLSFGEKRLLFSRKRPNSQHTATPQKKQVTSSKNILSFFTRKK
Sequence of UniProt P52731 (whole entry, looked up): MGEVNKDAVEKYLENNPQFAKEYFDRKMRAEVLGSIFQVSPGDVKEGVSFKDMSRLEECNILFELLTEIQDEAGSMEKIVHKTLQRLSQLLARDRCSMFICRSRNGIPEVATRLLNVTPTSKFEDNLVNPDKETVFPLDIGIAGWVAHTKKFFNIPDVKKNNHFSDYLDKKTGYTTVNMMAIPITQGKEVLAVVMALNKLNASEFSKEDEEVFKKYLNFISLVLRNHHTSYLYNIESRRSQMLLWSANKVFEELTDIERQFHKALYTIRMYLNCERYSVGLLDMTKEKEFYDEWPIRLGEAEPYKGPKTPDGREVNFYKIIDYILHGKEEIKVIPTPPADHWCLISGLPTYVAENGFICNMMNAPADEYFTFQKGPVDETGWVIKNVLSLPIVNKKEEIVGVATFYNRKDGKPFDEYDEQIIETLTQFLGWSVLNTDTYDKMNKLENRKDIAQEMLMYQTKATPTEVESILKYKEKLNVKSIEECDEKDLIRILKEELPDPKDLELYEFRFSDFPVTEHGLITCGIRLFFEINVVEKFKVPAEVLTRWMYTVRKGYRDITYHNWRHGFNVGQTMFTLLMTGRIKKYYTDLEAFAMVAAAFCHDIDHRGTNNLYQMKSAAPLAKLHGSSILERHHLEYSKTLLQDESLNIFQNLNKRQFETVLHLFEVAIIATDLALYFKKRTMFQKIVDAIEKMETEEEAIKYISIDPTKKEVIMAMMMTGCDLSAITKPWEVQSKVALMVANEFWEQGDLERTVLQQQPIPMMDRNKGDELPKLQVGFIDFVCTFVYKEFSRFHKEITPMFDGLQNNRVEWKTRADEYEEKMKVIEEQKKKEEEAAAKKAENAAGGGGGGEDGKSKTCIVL
Sequence of UniProt Q4G0S4 (whole entry, looked up): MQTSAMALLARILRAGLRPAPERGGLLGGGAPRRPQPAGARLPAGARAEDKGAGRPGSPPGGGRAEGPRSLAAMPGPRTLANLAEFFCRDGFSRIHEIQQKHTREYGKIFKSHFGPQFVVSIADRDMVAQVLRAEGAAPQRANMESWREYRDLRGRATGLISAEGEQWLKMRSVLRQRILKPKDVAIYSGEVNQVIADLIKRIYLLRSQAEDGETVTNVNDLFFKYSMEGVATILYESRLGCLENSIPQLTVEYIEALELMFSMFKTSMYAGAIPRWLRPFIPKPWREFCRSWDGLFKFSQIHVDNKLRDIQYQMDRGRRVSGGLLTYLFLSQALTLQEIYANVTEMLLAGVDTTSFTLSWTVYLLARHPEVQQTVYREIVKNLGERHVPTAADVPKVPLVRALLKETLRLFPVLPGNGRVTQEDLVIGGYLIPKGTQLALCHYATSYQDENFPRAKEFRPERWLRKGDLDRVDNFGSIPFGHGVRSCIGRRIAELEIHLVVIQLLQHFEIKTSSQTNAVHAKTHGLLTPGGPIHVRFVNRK
Sequence of UniProt Q9NPG2 (whole entry, looked up): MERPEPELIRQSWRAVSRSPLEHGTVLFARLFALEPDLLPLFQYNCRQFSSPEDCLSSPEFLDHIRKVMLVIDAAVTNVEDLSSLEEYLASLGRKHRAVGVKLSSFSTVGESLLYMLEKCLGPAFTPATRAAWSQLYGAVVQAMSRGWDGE

Substance	target or system	assay	system	conditions	quantity	result
{5,6‑carboxyfluorescein}-ATFLIQEYFRKFKKRKEQGLVGKPSQ (CACNA1C 1650-1675 (Oryctolagus cuniculus); N-terminal fluorescein)	Calm1 (Rattus norvegicus, UniProt P0DP29)	fluorescence polarisation	peptide	pH 7.4, 22 °C, 100 mM KCl, without Ca2+	Kd	119000 ± 32000 nM
EPB41L2/CALM1 (Homo sapiens)	MPP1 (Homo sapiens, UniProt Q00013)	resonant mirror detection		NaCl 100 mM	Kd	215 nM
B1 (PDE6H)	PDE6C GAF-A/GAF-B 42-458 (Gallus gallus, UniProt P52731)	BLI		30 min, added: cGMP 100 µM	Kd	10000 nM
KTLMGNPWFQRAKMPRALDFSGHTHPVATFQPSRPESVNDLFLCPQKELT (IFNLR1 250-299 (Homo sapiens, UniProt Q8IU57); sequence looked up)	JAK1 35-559 (Homo sapiens, UniProt P23458)	BLI	peptide	apparent, effective Kd	Kd	70.5 nM
rhodamine-LYGSDPQEELII (Cdh5 773-784 (Mus musculus); reading uncertain; N-terminal rhodamine; rhodamine = not defined here)	Pard3 581-689 R609A (Mus musculus, UniProt Q99NH2)	fluorescence polarisation	peptide	100 nM, pH 7.4, 298 K, NaCl 100 mM	Kd	25000 nM
B2 (CYCS)	NGB (Homo sapiens, UniProt Q9NPG2)	ITC			Kd	4670 nM
B3 (UGT1A9)	O=c1cc(-c2cccc(O)c2)oc2cc(O)ccc12	steady-state kinetics		pH 7.4, 37 °C	Vmax/Km	546 µL/min/mg
B4 (GSTP1 3-210 I105V/A114V)	PRDX6	FRET		pH 7.4, apparent, added: GSH 1 mM	Kd	57.2 nM
B5 (adrenodoxin)	CYP27C1 81-542 (Homo sapiens, UniProt Q4G0S4)	MST		pH 7.4, 25 °C, oxidized, single-site model	Kd	30 nM
KLLITIHDRKEFAKFEEERARAKW (ITGB3 742-765 (Homo sapiens, UniProt P05106); sequence looked up)	Myom1 IgC2 domains 4-5 C1354S (Mus musculus)	ITC	peptide	pH 6.8, 25 °C, NaCl 50 mM	Kd	37200 nM
ARTK(Me3)QTARKSTG (histone H3 peptide 2-13 (UniProt P68431); K4me3; sequence looked up)	DIDO1 PHD finger 266-325 (UniProt Q9BTC0-4)	fluorescence titration, NMR titration	peptide		Kd	1000 nM
CGA/FSHB mature, N-linked glycans (Equus caballus) (sequence not shown)	FSHR (Homo sapiens, UniProt P23945)	SPR	HEK293, membranes		Kd	1.4 nM
B6 (GLI2 zinc fingers 1-4)	KIF7 460-600 (Homo sapiens, UniProt Q2M1P5)	BLI			Kd	103 nM and 160 nM
CLSTAADMQGVVTDGMASGLDKDYLKPDD (azu residues 50-77)	TP63 DBD 127-323 (Homo sapiens)	atomic force spectroscopy	peptide	pH 7.5, NaCl 150 mM	Kd	790 nM
RAD30 (Saccharomyces cerevisiae, UniProt Q04049)	REV1, Cy5 label (Saccharomyces cerevisiae, UniProt P12689)	single-molecule TIRF		calculated from kon, koff	Kd	4.5 nM
GP6 fragment (Homo sapiens)	collagen III Toolkit peptide III-9, hydroxyproline, C-terminal amide (Homo sapiens)	ELISA			Kd	> 90 nM
MENVKKATATATWMVPTAQ (L3MBTL3 52-70 T62A (Homo sapiens, UniProt Q96JM7-2); sequence looked up)	Rbpj	ITC	peptide	pH 6.5, 25 °C, NaCl 150 mM, one site model	Kd	300 nM
PDCD1 fragment (Homo sapiens)	toripalimab IgG4	SPR			Kd	0.238 nM
RLGRDKYKTLRQIRQ (LRRKtide residues 550-564)	Lrrk2 (Mus musculus, UniProt Q5S006)	steady-state kinetics	peptide	pH 7.4, NaCl 50 mM, added: ATP	Kd	29000 nM
MENVKKAAATTTWMVPTAQ (L3MBTL3 52-70 T59A (Homo sapiens, UniProt Q96JM7-2); sequence looked up)	Rbpj	ITC	peptide	pH 6.5, 25 °C, NaCl 150 mM, one site model	Kd	1300 nM
B7 (GSTP1 3-210)	PRDX6	FRET		pH 7.4, apparent, added: GSH 1 mM	Kd	51 nM
chlD AAA+ domain plus polyproline region (Synechocystis) (sequence not shown)	chlI C244S, Alexa Fluor 488 label (Synechocystis)	MST		pH 7.8, 20 °C, added: MgADP 3 mM	Kd	183 ± 25.9 nM
B8 (BMP7 mature)	Grem2 22-168, glutathionylated (Mus musculus, UniProt O88273)	SPR		pH 7.5, 25 °C, NaCl 500 mM, apparent, steady-state	Kd	108 ± 5.9 nM
B9 (KLRK1/HCST)	MICA 24-297, Alexa Fluor 647 on Cys273 (Homo sapiens, UniProt Q29983)	TR-FRET	HEK293 TRex	apparent, in cells	Kd	200 nM

Excerpt of the above:
Substance	target or system	assay	system	conditions	quantity	result
B2 (CYCS)	NGB (Homo sapiens, UniProt Q9NPG2)	ITC			Kd	4670 nM
KLLITIHDRKEFAKFEEERARAKW (ITGB3 742-765 (Homo sapiens, UniProt P05106); sequence looked up)	Myom1 IgC2 domains 4-5 C1354S (Mus musculus)	ITC	peptide	pH 6.8, 25 °C, NaCl 50 mM	Kd	37200 nM
RLGRDKYKTLRQIRQ (LRRKtide residues 550-564)	Lrrk2 (Mus musculus, UniProt Q5S006)	steady-state kinetics	peptide	pH 7.4, NaCl 50 mM, added: ATP	Kd	29000 nM
